Results from different studies.
Protocols differ between the studies behind these lines. Values joined by “and” are separate records of one study, mostly repeats; a detail may differ.
MAP3K7: Mitogen-activated protein kinase kinase kinase 7 (MAP3K7, Homo sapiens, UniProt O43318)
Chain of UniProt O43318 (whole entry, looked up): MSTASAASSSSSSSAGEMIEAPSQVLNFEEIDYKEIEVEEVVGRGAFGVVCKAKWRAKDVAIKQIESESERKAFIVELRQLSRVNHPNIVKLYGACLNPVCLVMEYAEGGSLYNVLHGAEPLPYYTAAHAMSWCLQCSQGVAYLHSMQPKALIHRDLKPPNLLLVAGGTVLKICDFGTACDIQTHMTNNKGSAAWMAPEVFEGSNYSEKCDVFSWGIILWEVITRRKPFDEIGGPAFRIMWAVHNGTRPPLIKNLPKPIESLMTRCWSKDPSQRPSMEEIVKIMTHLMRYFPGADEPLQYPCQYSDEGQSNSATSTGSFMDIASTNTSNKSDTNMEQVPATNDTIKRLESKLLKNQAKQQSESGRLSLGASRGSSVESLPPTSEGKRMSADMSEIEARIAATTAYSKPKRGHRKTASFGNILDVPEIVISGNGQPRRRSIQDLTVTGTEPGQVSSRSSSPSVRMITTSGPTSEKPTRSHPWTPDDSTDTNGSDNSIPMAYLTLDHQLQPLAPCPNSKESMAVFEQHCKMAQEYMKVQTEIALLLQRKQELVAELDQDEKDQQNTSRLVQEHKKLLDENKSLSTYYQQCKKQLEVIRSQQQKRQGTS
MAP3K7 with TAB1: Mitogen-activated protein kinase kinase kinase 7, with TAB1 (MAP3K7, Homo sapiens, UniProt O43318)

SMILES | target | test | test system | setting | scale | measurement | result
O=C(Cc1ccc(OCc2ccccc2)cc1)NC1(C(=O)O)CCN(C(=O)c2ccc(-c3cccc(Cl)c3)cc2)CC1 | MAP3K7 | enzyme activity, inhibitor | – | 10 µM | – | activity vs control | 98%
C=CC(=O)N1CCCC(n2c(=O)c3ncccc3n(Cc3ccc(Oc4ccccc4)cc3)c2=O)C1 (stereo not shown) | MAP3K7 | cell-free assay, competition with immobilised ligand | – | 1 µM | – | remaining binding | 84%
c1ccc2c(Nc3cc(C4CCC4)[nH]n3)nc(Nc3ccc4nc[nH]c4c3)nc2c1 | MAP3K7 | enzyme activity, inhibitor | – | 0.25 µM | – | remaining activity | 2%
CNC(=O)C[C@H](Cc1ccc(C#N)cc1)NC(=O)c1cc(-c2ccc(CN[C@H](C)c3ccc(C)cc3)o2)ccc1Cl | MAP3K7 | enzyme activity, inhibitor | – | 1 µM | – | activity vs control | 103%
COc1cc(Nc2nc(C)cc(-c3cnn4nc(OC)ccc34)n2)cc(C(F)(F)F)c1 | MAP3K7 | binding, competition with immobilised ligand | – | 1 µM | – | remaining binding | 73%
C=CC(=O)Nc1cc(-c2nn(C3CCN(CCNC(=O)[C@H](C)CCC45CC6CC(CC(C6)C4)C5)CC3)c3ncnc(N)c23)ccc1Oc1ccccc1 | MAP3K7 | inhibitor, KiNativ profiling | biochemical | 2 µM | – | inhibition | 22%
C=CC(=O)Nc1cccc(-c2cnc3[nH]cc(C(=O)NC(C)(C)C)c3n2)c1 | MAP3K7 with TAB1 | kinase activity, inhibitor, kinase panel | – | 0.1 µM | – | inhibition | 17% and 16%
CN1CC[C@@H](COc2cnc(C#N)cc2-c2ccn3nc(NC(=O)C4CC4)cc3c2)C1 | MAP3K7 | enzyme activity, inhibitor | – | 1 µM | – | inhibition | -3%
CCn1cc(C(=O)O)c(=O)c2c(N)c(F)c(NC3CCCCC3)cc21 | MAP3K7 | kinase activity | – | 0.1 µM, together with: ATP at Km | – | inhibition | 9%
CCN1CCN(Cc2ccc(C(=O)Nc3ccc(C)c(NCc4cnc5[nH]ccc5c4OC)c3)cc2C(F)(F)F)CC1 | MAP3K7 | binding, competition with immobilised ligand | – | 1 µM | – | remaining binding | 11%
Cc1cccc(O[C@H]2CCC[C@@H](C(C)CNCc3ccncc3)C2)c1 (relative stereo) | MAP3K7 with TAB1 | kinome profiling | – | 10 µM | – | inhibition | 7%
NC(=O)[C@@H](O)C[C@H]1CCc2sc3ncnc(O[C@H]4CC[C@H](N5CCOCC5)CC4)c3c21 | MAP3K7 | enzyme activity, inhibitor | – | 10 µM | – | inhibition | 1%
CNC(=O)C1CCN(c2cc(C)c(F)cc2NC(=O)c2ccc(-c3cc(O)ccc3C)c(C)c2)CC1 | MAP3K7 | binding, competition with immobilised ligand | – | 1 µM | – | remaining binding | 100%
O=C(O)CCC(=O)c1cccc(NS(=O)(=O)c2c[nH]c3ncccc23)c1 | MAP3K7 | kinase activity, radiometric | – | 10 µM | – | remaining activity | 106%
O=C=[N][Ru-4]123([n]4c5ccc(O)cc5c5c6c(c7cc(F)c[n+]1c7c54)C(=O)NC6=O)[S+]1CC[S+]2CC[S+]3CC1 (stereo not shown) | MAP3K7 | enzyme activity | – | 100 nM, human enzyme, together with: 10 µM ATP | relative to: untreated | remaining activity | 107%
Cc1ccc(-c2c(/C=C(\C#N)C(=O)NC(C)C)n(CCCO)c3ncnc(N)c23)cc1 | MAP3K7 | cell-free assay, competition with immobilised ligand | – | 1 µM | – | remaining binding | 100%
